Published values of several laboratories.
Several values in a cell are separate wells, animals, samples, runs or records. ± gives the spread as reported.

Compound | target or system | test | test system | setting | how to read | endpoint | result
CNC(=S)NCCCC[C@H](NC(=O)CCc1ccccc1)C(=O)N[C@@H](CCCNC(=N)N)C(=O)N[C@@H](CC1CCCCC1)C(=O)N[C@H](CCCCN)C(=O)N[C@@H](CC1CCCCC1)C(N)=O | HEK-293T | cell growth or viability, MTT | – | 72 h | – | EC50 | 74.1 µM
CC[C@H](C)[C@H](NC(=O)CNC(=O)[C@H](Cc1ccc(O)cc1)NC(=O)[C@H](CO)NC(=O)[C@H](Cc1ccc(O)cc1)NC(=O)[C@@H](NC(=O)[C@H](CC(=O)O)NC(=O)[C@H](CO)NC(=O)[C@H](CCC(N)=O)NC(=O)[C@H](Cc1ccccc1)NC(=O)[C@H](CO)NC(=O)[C@H](Cc1ccccc1)NC(=O)[C@@H]1CCCN1C(=O)[C@H](CC(N)=O)NC(=O)[C@H](CC(N)=O)NC(=O)[C@H](CC(=O)O)NC(=O)[C@H](CCC(N)=O)NC(=O)[C@@H]1CCCN1C(=O)[C@H](CCCNC(=N)N)NC(=O)[C@H](CCCNC(=N)N)NC(=O)[C@H](CCCNC(=N)N)NC(=O)[C@H](CCC(N)=O)NC(=O)[C@H](CCCNC(=N)N)NC(=O)[C@H](CCCNC(=N)N)NC(=O)[C@H](CCCCN)NC(=O)[C@H](CCCCN)NC(=O)[C@H](CCCNC(=N)N)NC(=O)CN)C(C)C)C(=O)N[C@H](C(=O)N[C@@H](CC(C)C)C(N)=O)C(C)C | MCF7 | immunoblot densitometry, refers to: phospho-c-Raf Ser338 | – | 50 µM, 48 h, unit not given | baseline: 0 µM | phospho-c-Raf level | 0.144 and 0.221
CC(C)C[C@H](NC(=O)[C@H](CC(=O)O)NC(=O)CNC(=O)[C@@H](N)CCCNC(=N)N)C(=O)N[C@@H](C)C(=O)N[C@H](C(=O)N[C@@H](CC(C)C)C(=O)N[C@@H](CCCNC(=N)N)C(=O)N[C@@H](CCC(N)=O)C(=O)N[C@@H](CC(C)C)C(=O)N[C@@H](C)C(=O)N[C@@H](CCC(N)=O)C(=O)N[C@@H](CCC(=O)O)C(=O)N[C@@H](CC(=O)O)C(=O)NCC(=O)N[C@H](C(=O)N[C@H](C(=O)NCC(=O)N[C@H](C(=O)N[C@@H](CCCNC(=N)N)C(=O)NCCOCCOCCOCCOCCOCCOCCOCCOCCOCCOCCOCCOCCC(=O)N[C@@H](CS)C(N)=O)C(C)C)C(C)C)C(C)C)[C@@H](C)O | HCC1171 lung carcinoma | cell binding, phage binding, refers to: output/input phage | – | 10 min, 37 °C | baseline: control phage | selectivity ratio | 2.9 ± 1.5
CNC(=S)N/N=C/c1ccc(OCc2ccccc2)cc1 | IMR-32 | – | – | 300 µg/mL, 24 h | higher = more activity | catalase activity (OD450) | 0.059 a.u.
CC(C)CC(O)(CC(C)C)c1cn(C(=O)N2CCCC2)nn1 | mouse T-cells | SILAC proteomics, refers to: PAIP2 | – | 1 nM, 6 h, unit not given | baseline: DMSO | protein level | 0.9
Cc1cc(Oc2nc(N3CC[C@@H](c4ccncc4)C3)ncc2F)[nH]n1 | SK-HEP1 | cell proliferation | liver cancer | – | – | IC50 | 60.3 µM
CC1CCC2C(C)C(OC(=O)CCC(=O)N3CCC(Nc4ccc(S(=O)(=O)NC(=O)c5ccc(N6CCN(CC7=C(c8ccc(Cl)cc8)CC(C)(C)CC7)CC6)cc5Oc5cnc6[nH]ccc6c5)cc4[N+](=O)[O-])CC3)OC3OC4(C)CCC1C32OO4 (stereo not drawn) | THP-1 | annexin V/PI flow cytometry, refers to: annexin V-/PI- | – | 0.4 µM, 24 h | – | viable cells | 27.5%
CCC1=NC2CC3(C(=O)N(OC)c4ccccc43)C3OCC2C1C3O (stereo not drawn) | Vero | CCK-8 | – | up to 100 µM, 24 h | – | viability | no effect
O=C(O)c1ccc(-c2nc(-c3ccccc3Cl)c3sccn23)cc1 | K562 | erythroid differentiation, flow cytometry | – | 0.1 mM, 24 h | – | CD235a-positive cells | 96.1% and 92% and 92.9%
CC(C)(C)C(=O)OCOP(=O)(OCOC(=O)C(C)(C)C)C1CCCN(O)C1=O (stereo not drawn) | NCI-60 cell line panel | – | – | – | – | Log10TGI mean | -4.97 log M
NC(=O)N/N=C/c1ccc(OCc2cccc(F)c2)cc1 | IMR-32 | – | – | 50 µg/mL, 24 h | higher = more activity | catalase activity (OD450) | 0.033 a.u.
CC(C)[C@H](NC(=O)[C@H](CCCNC(=N)N)NC(=O)[C@@H]1CCCN1C(=O)[C@@H](NC(=O)[C@H](C)NC(=O)[C@H](Cc1ccc(O)cc1)NC(=O)[C@H](CCC(N)=O)NC(=O)[C@H](CCCCN)NC(=O)[C@H](CCCNC(=N)N)NC(=O)[C@@H]1CCCN1C(=O)[C@H](CCC(=O)O)NC(=O)[C@@H](NC(=O)[C@H](C)N)[C@@H](C)O)[C@@H](C)O)C(=O)N[C@@H](Cc1ccccc1)C(=O)N[C@@H](Cc1c[nH]c2ccccc12)C(=O)N[C@H](C(=O)N[C@@H](CC(=O)O)C(=O)N[C@@H](C)C(=O)N1CCC[C@H]1C(=O)NCC(=O)NCCOCCOCCOCCOCCOCCOCCOCCOCCOCCOCCOCCOCCC(=O)N[C@@H](CS)C(N)=O)[C@@H](C)O | H441 | phage binding | – | 10 min, 37 °C | baseline: control phage | selectivity ratio | 1.7 ± 1.4
C#CCN1C(=O)C(CC#C)(C(=O)OCC)Oc2ccccc21 (stereo not drawn) | L02 | cell growth or viability, CCK-8 | – | 100 µM, 72 h | – | inhibition | 1%
CC(=O)NCSC[C@H](NC(=O)[C@@H]1CCCN1C(=O)[C@H](C)NC(=O)[C@@H](NC(=O)CNC(=O)[C@@H](NC(=O)[C@H](Cc1c[nH]c2ccccc12)NC(=O)[C@H](C)NC(=O)CNC(=O)[C@H](CO)NC(=O)[C@H](C)NC(=O)[C@@H]1CCCN1C(=O)[C@H](Cc1c[nH]c2ccccc12)NC(=O)[C@H](C)NC(=O)[C@H](C)NC(=O)[C@@H](N)Cc1ccc(O)cc1)[C@@H](C)O)[C@@H](C)O)C(=O)N[C@@H](CO)C(=O)N[C@@H](C)C(=O)NCC(=O)N[C@H](C(=O)NCCOCCOCCOCCOCCOCCOCCOCCOCCOCCOCCOCCOCCC(=O)N[C@@H](CS)C(N)=O)[C@@H](C)O | H460 lung large cell carcinoma | cell binding, phage binding, refers to: output/input phage | – | 10 min, 37 °C | baseline: control phage | selectivity ratio | 1.1 ± 0.33
CC(C)C12OC1C1OC13C1(C)CCC4=C(COC4=O)C1CC1OC13C2OC(=O)CCC(=O)OC1OC(CO)C(O)C(O)C1O (stereo not drawn) | HUVEC | cell growth or viability, XTT | – | 47 h | – | IC50 | 1.37 µM
CSc1ccc2c(c1)c(CCN)c(C)n2Cc1ccccc1Cl | HMC3 | phagocytosis, high-content imaging | – | geometric mean, together with: pHrodo-myelin uptake | – | EC50 | 2.54 µM
COc1ccc(NC(=O)c2ccc3[nH]c(-c4ccc(N(C)C)cc4)nc3c2)cn1 | HCT116 | IncuCyte | – | concentration not given, 8 (unit not given) | – | PI-positive cells | 13.3 count and 8.42 count and 6.75 count
COc1ccccc1-c1ccncc1C(=O)Nc1nnc(OCc2ccc(Cl)cc2)s1 | RPE-1 BRCA1 WT parental | – | – | 0.125 µM, average of 2 runs | baseline: untreated | colony survival | 92%
C=CCN1C(=O)C(CC=C)(C(=O)OCC)Oc2cc(F)ccc21 (stereo not drawn) | HaCaT | cell growth or viability, CCK-8 | – | 3.13 µM, 72 h | – | inhibition | 0.35%
CSCC[C@H](NC(=O)[C@@H](NC(=O)[C@H](CCC(N)=O)NC(=O)[C@H](CO)NC(=O)[C@@H](N)C(C)C)[C@@H](C)O)C(=O)N[C@@H](CCCNC(=N)N)C(=O)N[C@@H](CCC(N)=O)C(=O)N[C@H](C(=O)N[C@@H](C)C(=O)N[C@H](C(=O)N1CCC[C@H]1C(=O)N[C@@H](CC(C)C)C(=O)N[C@@H](CC(C)C)C(=O)N[C@@H](Cc1c[nH]c2ccccc12)C(=O)N[C@@H](Cc1ccccc1)C(=O)N[C@@H](Cc1c[nH]c2ccccc12)C(=O)N[C@H](C(=O)NCC(=O)N[C@@H](CO)C(=O)N[C@@H](CC(C)C)C(=O)NCCOCCOCCOCCOCCOCCOCCOCCOCCOCCOCCOCCOCCC(=O)N[C@@H](CS)C(N)=O)[C@@H](C)O)C(C)C)[C@@H](C)O | Calu-1 lung mucoepidermoid carcinoma | cell binding, phage binding, refers to: output/input phage | – | 10 min, 37 °C | baseline: control phage | selectivity ratio | 45 ± 17
CCOC(=O)C1(Cc2ccccc2)Oc2cc(F)ccc2N(Cc2ccccc2)C1=O (stereo not drawn) | L02 | cell growth or viability, CCK-8 | – | 25 µM, 72 h | – | inhibition | 0.12%
O=C(C[Se]C(=O)c1cccs1)Nc1cccc(C(F)(F)F)c1 | NCI60 NSCLC subpanel mean | cell growth | – | – | – | TGI | 3.09 µM
CC(C)Cc1ccc(C(C)C(=O)[O-])cc1.CC(C)Cc1ccc(C(C)C(=O)[O-])cc1.[Cu+2].c1ccncc1.c1ccncc1 (stereo not drawn) | MRC5 | cell growth or viability, MTT | – | 48 h | – | GI50 | 7.5 µM
O=C1NC2(CC2)COc2ncc(F)cc2[C@H]2COCCN2c2ccn3ncc1c3n2 | – | – | Sprague-Dawley rat, male, serum | oral, 20 mg/kg/day, 4 weeks daily, end of recovery period | – | alanine aminotransferase activity | 37.2 ± 13.7 U/L

Some of these lines once more:
Compound | target or system | test | test system | setting | how to read | endpoint | result
CC(C)C[C@H](NC(=O)[C@H](CC(=O)O)NC(=O)CNC(=O)[C@@H](N)CCCNC(=N)N)C(=O)N[C@@H](C)C(=O)N[C@H](C(=O)N[C@@H](CC(C)C)C(=O)N[C@@H](CCCNC(=N)N)C(=O)N[C@@H](CCC(N)=O)C(=O)N[C@@H](CC(C)C)C(=O)N[C@@H](C)C(=O)N[C@@H](CCC(N)=O)C(=O)N[C@@H](CCC(=O)O)C(=O)N[C@@H](CC(=O)O)C(=O)NCC(=O)N[C@H](C(=O)N[C@H](C(=O)NCC(=O)N[C@H](C(=O)N[C@@H](CCCNC(=N)N)C(=O)NCCOCCOCCOCCOCCOCCOCCOCCOCCOCCOCCOCCOCCC(=O)N[C@@H](CS)C(N)=O)C(C)C)C(C)C)C(C)C)[C@@H](C)O | HCC1171 lung carcinoma | cell binding, phage binding, refers to: output/input phage | – | 10 min, 37 °C | baseline: control phage | selectivity ratio | 2.9 ± 1.5
CC(C)Cc1ccc(C(C)C(=O)[O-])cc1.CC(C)Cc1ccc(C(C)C(=O)[O-])cc1.[Cu+2].c1ccncc1.c1ccncc1 (stereo not drawn) | MRC5 | cell growth or viability, MTT | – | 48 h | – | GI50 | 7.5 µM
NC(=O)N/N=C/c1ccc(OCc2cccc(F)c2)cc1 | IMR-32 | – | – | 50 µg/mL, 24 h | higher = more activity | catalase activity (OD450) | 0.033 a.u.
